{"data": "Results of several laboratories", "note": "Each line is one published result; not all experiments were run side by side. Numbers after ± are the reported error.", "sequence of UniProt Q53GS9 (whole entry, looked up)": "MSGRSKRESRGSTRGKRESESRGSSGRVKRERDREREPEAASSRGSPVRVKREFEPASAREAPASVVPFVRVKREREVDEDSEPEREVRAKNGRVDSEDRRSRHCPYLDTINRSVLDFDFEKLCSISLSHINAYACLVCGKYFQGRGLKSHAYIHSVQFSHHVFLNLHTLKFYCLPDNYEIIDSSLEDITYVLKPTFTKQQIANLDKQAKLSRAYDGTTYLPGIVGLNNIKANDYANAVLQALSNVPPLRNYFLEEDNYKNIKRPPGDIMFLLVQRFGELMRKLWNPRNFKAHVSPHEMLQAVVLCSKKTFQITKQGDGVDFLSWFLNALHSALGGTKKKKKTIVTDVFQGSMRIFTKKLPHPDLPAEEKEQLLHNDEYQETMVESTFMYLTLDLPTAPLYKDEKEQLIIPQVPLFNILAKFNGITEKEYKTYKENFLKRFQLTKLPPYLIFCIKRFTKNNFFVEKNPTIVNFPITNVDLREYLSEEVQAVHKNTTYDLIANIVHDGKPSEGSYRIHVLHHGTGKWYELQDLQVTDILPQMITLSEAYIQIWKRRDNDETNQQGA", "sequence of UniProt Q70CQ1 (whole entry, looked up)": "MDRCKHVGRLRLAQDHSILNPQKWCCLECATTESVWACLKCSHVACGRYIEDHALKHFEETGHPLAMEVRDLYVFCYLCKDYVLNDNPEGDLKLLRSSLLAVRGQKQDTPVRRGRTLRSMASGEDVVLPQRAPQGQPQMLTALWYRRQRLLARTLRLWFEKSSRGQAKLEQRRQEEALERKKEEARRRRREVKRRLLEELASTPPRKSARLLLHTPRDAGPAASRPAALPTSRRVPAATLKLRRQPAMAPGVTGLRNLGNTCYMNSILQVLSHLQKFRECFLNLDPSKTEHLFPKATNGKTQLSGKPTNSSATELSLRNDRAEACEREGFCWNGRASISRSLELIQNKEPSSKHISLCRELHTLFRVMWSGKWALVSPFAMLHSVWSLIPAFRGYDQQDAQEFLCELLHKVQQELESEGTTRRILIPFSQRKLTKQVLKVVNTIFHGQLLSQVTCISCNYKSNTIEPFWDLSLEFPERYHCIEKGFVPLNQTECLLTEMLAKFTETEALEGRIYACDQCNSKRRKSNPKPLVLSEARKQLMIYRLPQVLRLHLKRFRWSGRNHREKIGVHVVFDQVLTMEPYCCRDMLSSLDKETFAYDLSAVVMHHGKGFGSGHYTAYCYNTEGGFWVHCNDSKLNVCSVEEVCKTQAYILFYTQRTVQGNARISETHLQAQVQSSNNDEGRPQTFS"}
{"SMILES": "O=C(O)c1cccnc1C(=O)O", "assay": "binding, equilibrium dialysis LC-MS", "setting": "5 µM, thermostabilized A2AR-BRIL construct", "scale": "baseline: no-protein control, direction not given", "endpoint": "z-scored log2 fold change", "result": 0.517}
{"SMILES": "C[C@H](Oc1ccc(Br)cc1-c1ccon1)C(=O)O", "assay": "last response peak", "test system": "human, tibialis anterior muscle", "setting": "200 mg, 30 Hz, single ascending dose", "endpoint": "difference from placebo", "result": "10.5%"}
{"SMILES": "O=C(O)Cn1ccc2ccccc2c1=O", "target or system": "Ubiquitin carboxyl-terminal hydrolase 49, ZnF-UBD domain (USP49, Homo sapiens, UniProt Q70CQ1)", "endpoint": "Kd", "result": "> 1000 µM"}
{"SMILES": "N#Cc1ccc2c(c1)[C@H]1CCCN(C(=O)c3ccc4[nH]cnc4c3)[C@H]1C2", "assay": "item: LDL", "test system": "human", "setting": "240 mg once daily, day 28, adjusted mean, added: metformin", "scale": "baseline: placebo", "endpoint": "change from baseline", "result": "-3.12 mg/dL"}
{"SMILES": "NS(=O)(=O)c1nnc(NC(=O)CN2CCC3(CC2)COC3)s1", "target or system": "Alpha-carbonic anhydrase (Enterococcus faecium, UniProt Q3XYE8)", "assay": "CO2 hydration, inhibitor, stopped-flow kinetics", "endpoint": "Ki", "result": "0.0124 µM"}
{"SMILES": "CO[C@H]1CC[C@H](N2C(=O)CNc3ncc(-c4ccc(C(C)(C)O)nc4)nc32)CC1", "assay": "flow cytometry", "test system": "stimulated monocytes, human, blood", "setting": "60 mg single dose, 1.5 h, mean", "scale": "baseline: baseline", "endpoint": "pAKT change from baseline", "result": "-39.8%"}
{"SMILES": "CC[C@@H]1C(=O)N(C)c2cnc(Nc3ccc(C(=O)NC4CCN(C)CC4)cc3OC)nc2N1C1CCCC1", "target or system": "iCell Cardiomyocytes (hiPSC-derived)", "assay": "xCELLigence Cardio impedance", "setting": "concentration not given, 2 h", "scale": "baseline: control", "endpoint": "beat rate", "result": "90.4%"}
{"SMILES": "COc1cc2/c(=N/c3ccc(Br)cc3F)nc[nH]c2cc1OCC1CCN(C)CC1", "target or system": "NLRP3 inflammasome (mouse)", "test system": "mouse BMDM", "setting": "10 µM", "endpoint": "inhibition", "result": "58.7%"}
{"SMILES": "O=P(O)(O)OC[C@H]1O[C@H](OP(=O)(O)OP(=O)(O)O)[C@H](O)[C@@H]1O", "assay": "binding, equilibrium dialysis LC-MS", "setting": "5 µM, thermostabilized A2AR-BRIL construct", "scale": "baseline: no-protein control, direction not given", "endpoint": "z-scored log2 fold change", "result": -1.47}
{"SMILES": "O=C(O)CCc1cnn(-c2ccccc2)c1", "target or system": "Ubiquitin carboxyl-terminal hydrolase 39, ZnF-UBD domain (Homo sapiens, UniProt Q53GS9)", "endpoint": "Kd", "result": "> 1000 µM"}
{"SMILES": "CC(C)NCC(O)c1ccc(O)c(O)c1 (stereo not drawn)", "test system": "ventricular cardiomyocytes, C57BL/6 mouse", "setting": "dose not given, 0.86 s", "endpoint": "sarcomere length", "result": "1.5 µm"}
{"SMILES": "N#Cc1ccn2c(-c3ccncc3)c(-c3ccc(F)cc3)nc2c1", "assay": "kinase binding, competitor, MIB/MS competition, item: SAK1", "test system": "Candida albicans cell lysate", "setting": "100 nM", "scale": "baseline: DMSO", "endpoint": "log2 fold change", "result": -0.14}
{"SMILES": "OC[C@H]1O[C@H](O[C@H]2[C@H](O)[C@@H](O)[C@H](O)O[C@@H]2CO)[C@H](O)[C@@H](O)[C@@H]1O", "assay": "binding, equilibrium dialysis LC-MS", "setting": "5 µM, thermostabilized A2AR-BRIL construct", "scale": "baseline: no-protein control, direction not given", "endpoint": "z-scored log2 fold change", "result": 0.274}
{"SMILES": "COc1cc2cc(-c3ccc(CC(=O)Nc4cc(C(C)(C)C(F)(F)F)no4)cn3)cnc2cc1OC", "assay": "RECIST v1.1", "test system": "human RET-altered solid tumours", "setting": "11 50 mg tablets, phase I", "endpoint": "best overall response PR", "result": "11%"}
{"SMILES": "c1ccc(-c2n[nH]cc2-c2ccnc3ccccc23)nc1", "assay": "kinase binding, competitor, MIB/MS competition, item: CTK1", "test system": "Candida albicans cell lysate", "setting": "1 µM", "scale": "baseline: DMSO", "endpoint": "log2 fold change", "result": 0.478}
{"SMILES": "C[C@@H](O)CCOC(=O)C[C@@H](C)O", "assay": "item: C14:1-OH acylcarnitine", "test system": "human, plasma", "setting": "60 min, log2-transformed values", "endpoint": "metabolite level", "result": "-6.28 ± 0.49 µmol/L"}
{"SMILES": "NC(=O)c1cnc2[nH]ccc2c1N[C@@H]1[C@@H]2CC3C[C@H]1C[C@@](O)(C3)C2", "assay": "CD4+ naive T cells, flow cytometry", "test system": "Caucasian humans, peripheral blood", "setting": "20 mg single dose", "scale": "baseline: baseline", "endpoint": "percent change", "result": "-1.48%"}
{"SMILES": "C[C@H](O)[C@@H](O)[C@@H](O)[C@H](O)C=O", "assay": "binding, equilibrium dialysis LC-MS", "setting": "5 µM, thermostabilized A2AR-BRIL construct", "scale": "baseline: no-protein control, direction not given", "endpoint": "z-scored log2 fold change", "result": 0.0312}
{"SMILES": "CS(=O)(=O)N1CCN(Cc2cc3nc(-c4cccc5[nH]ncc45)nc(N4CCOCC4)c3s2)CC1", "target or system": "iCell Cardiomyocytes (hiPSC-derived)", "assay": "CellTiter-Glo", "setting": "concentration not given, 24 h", "scale": "baseline: control", "endpoint": "ATP level", "result": "85.9%"}
{"SMILES": "CC(O)(CC(=O)O)C(=O)O (stereo not drawn)", "assay": "binding, equilibrium dialysis LC-MS", "setting": "5 µM, thermostabilized A2AR-BRIL construct", "scale": "baseline: no-protein control, direction not given", "endpoint": "z-scored log2 fold change", "result": 0.267}
{"SMILES": "OC(CCN1CCCCC1)(c1ccccc1)C1CC2C=CC1C2 (stereo not drawn)", "assay": "resting-state EEG", "test system": "healthy elderly humans", "setting": "oral, 2 mg, eyes closed, LS mean", "scale": "baseline: baseline", "endpoint": "change, Gamma EEG power, in O2-Pz", "result": "10.2%"}
